Assay results of several laboratories.
Lines come from different studies, so protocols differ. Values joined by “and” are separate records of one study, mostly repeats; a detail may differ. Numbers after ± are the reported error.

Compound	target or system	test	test system	conditions	how to read	measurement	result
O=C(O)CNC(=O)Cc1ccccc1			ventricular cardiomyocytes, C57BL/6 mouse	dose not given, 0.852 s		sarcomere length	1.62 µm
CCn1cc(-c2cc(Cn3ccoc3=N)cc3c2CCN([C@@H](C)c2cc(OC)ccn2)C3=O)c(C(F)(F)F)n1	NCI-H446	cell growth, inhibitor		120 h		EC50	0.253 µM
C[C@]12CC[C@@H]3c4ccc(O)cc4C[C@@H](CCCCCCCCC[S+]([O-])CCCC(F)(F)C(F)(F)F)[C@H]3[C@@H]1CC[C@@H]2O (some centres unmarked)	human iPSC-derived cardiomyocytes	MyBP-C/MYH ratio, plate-normalised SD score		concentration not given, primary screen	direction not given	activity score	3.5
O=C(/C=C/C=C/C=C/C1CCCCC1)NC1=C[C@@](O)(/C=C/C=C/C=C/C(=O)NC2=C(O)CCC2=O)[C@@H]2O[C@@H]2C1=O	COLO-679	cell growth, CellTiter-Glo		78 h		GI50	18.1 µM
CCS(=O)(=O)c1nc(C2CC2)cc(C(F)(F)F)n1	importin beta-1	SREBP1 nuclear import, high content imaging	HeLa Kyoto	0.16 µM, 3 h, with: glucose and MG132		cells with nuclear SREBP1	84.8% and 83.5% and 88.9% and 90.2%
[Cl-].[Cl-].[Pt+2].[Ru+2].c1ccc(-c2nc3ccccc3nc2-c2ccccn2)nc1.c1cnc2c(c1)ccc1cccnc12.c1cnc2c(c1)ccc1cccnc12	pcDNA supercoiled plasmid	agarose gel electrophoresis		50 µM, photoinduced cleavage, with: 0.1 µM pcDNA		nicked circular DNA	15.5%
Oc1ccccc1-c1n[nH]cc1-c1ccnc2ccccc12	KIN3 (Candida albicans)	kinase binding, MIB/MS competition	Candida albicans lysate	1 µM	baseline: DMSO	log2 fold change	-0.01
O=C1CCC(N2C(=O)c3ccccc3C2=O)C(=O)N1 (centres unmarked)	human iPSC-derived cardiomyocytes	MyBP-C/MYH ratio, plate-normalised SD score		concentration not given, primary screen	direction not given	activity score	4.9
Nc1ncncc1-c1cn([C@@H]2O[C@](F)(CO)[C@@H](O)[C@H]2O)cn1	Dengue virus	viral replication	Huh-7, DENV-2	48 h		EC50	> 100 µM
C[C@H]1C[C@H]2CSC(N)=N[C@@]2(c2nc(NC(=O)c3ccc(OC(F)F)cn3)cs2)CO1		measured: total Aβ	healthy adults, plasma	3 mg single dose, 4 h post-dose	baseline: placebo	percent change from baseline	-29.8%
OC(CCN1CCCCC1)(c1ccccc1)c1ccccc1	human iPSC-derived cardiomyocytes	MyBP-C/MYH ratio, plate-normalised SD score		concentration not given, primary screen	direction not given	activity score	3.5
CN(C(=O)n1cnc(-c2ccc[n+]([O-])c2)c1)C1CCCCC1		measured: OEA	human, plasma	5 mg single dose		AUC(0-t)	724 ng·h/mL
N#Cc1ccc2c(c1)[C@H]1CCCN(C(=O)c3ccc4[nH]cnc4c3)[C@H]1C2			human clinical trial	oral, 240 mg once daily, at last treatment		ACTH level	14.3 pmol/L
CO/N=C1\C[C@]2(C[C@@H]3C[C@@H](C/C=C(\C)C[C@@H](C)/C=C/C=C4\CO[C@@H]5[C@H](O)C(C)=C[C@@H](C(=O)O3)[C@]45O)O2)O[C@H](/C(C)=C/C(C)C)[C@H]1C	human iPSC-derived cardiomyocytes	MyBP-C/MYH ratio, plate-normalised SD score		concentration not given, primary screen	direction not given	activity score	12
CCOc1nc(N)ncc1-c1cn([C@@H]2O[C@](F)(COC(=O)C(C)C)[C@@H](OC(=O)C(C)C)[C@H]2OC(=O)C(C)C)cn1	Dengue virus	viral replication	Huh-7, DENV-4	48 h		EC50	27 µM
CC(Nc1nc(N2CCCC2)nc2ccccc12)c1ccccc1 (centres unmarked)	importin beta-1	SREBP1 nuclear import, high content imaging	HeLa Kyoto	0.16 µM, 3 h, with: glucose and MG132		cells with nuclear SREBP1	85.7% and 88.3% and 91.6% and 81.3%

Compound	target or system	test	test system	conditions	how to read	measurement	result
Cn1cc(-c2ccc(-c3cncc(Cl)c3N3CCC4(CCNC4=O)CC3)cc2)cn1	COLO 205	microarray, measured: OPTN		concentration not given, 2 h, gene set Optineurin	baseline: untreated cells	fold change in expression	4.15
Cc1c(C(=O)O)c(O)cc2c1C(=O)c1c(O)c([C@@H]3O[C@H](CO)[C@@H](O)[C@H](O)[C@H]3O)c(O)c(O)c1C2=O	human iPSC-derived cardiomyocytes	MyBP-C/MYH ratio, plate-normalised SD score		concentration not given, primary screen	direction not given	activity score	3.4
COC(=O)[C@H](Cc1c[nH]c2ccccc12)NCc1cc2ccccc2nc1OC	Pseudomonas aeruginosa			8 µg/mL, with: pentamidine 100 µM	baseline: control	growth	51.7%
c1coc(-c2n[nH]cc2-c2ccnc3ccccc23)c1	MPS1 (Candida albicans)	kinase binding, MIB/MS competition	Candida albicans lysate	1 µM	baseline: DMSO	log2 fold change	0.02
CC[S+]([O-])c1nc(-c2ccccc2)cc(C(F)(F)F)n1 (centres unmarked)	importin beta-1	SREBP1 nuclear import, high content imaging	HeLa Kyoto	1.58 µM, 3 h, with: glucose and MG132		cells with nuclear SREBP1	94.7% and 88.7% and 92.6% and 85.8%
CSCCNc1nc(SCCC(F)(F)F)nc2c1ncn2[C@@H]1O[C@H](COP(=O)(O)OP(=O)(O)C(Cl)(Cl)P(=O)(O)O)[C@@H](O)[C@H]1O		ADP-induced platelet aggregation, Multiplate	human patients, whole blood	4 to 6 h		platelet aggregation	54.3 ± 35.8 U
COc1ccc(-n2nc(C(N)=O)c3c2C(=O)N(c2ccc(N4CCCCC4=O)cc2)CC3)cc1	human iPSC-derived cardiomyocytes	MyBP-C/MYH ratio, plate-normalised SD score		concentration not given, primary screen	direction not given	activity score	-3.7
CC(C)C(=O)OC[C@@]1(F)O[C@@H](n2cnc(-c3cnc[nH]c3=O)c2)[C@H](OC(=O)C(C)C)[C@@H]1OC(=O)C(C)C	Dengue virus	viral replication	Huh-7, DENV-2	48 h		EC50	> 100 µM
CC(NCCC(c1ccccc1)c1ccccc1)c1ccccc1 (centres unmarked)	human iPSC-derived cardiomyocytes	MyBP-C/MYH ratio, plate-normalised SD score		concentration not given, primary screen	direction not given	activity score	4.8
COc1cnc2cccc(N3CCc4c(cc(Cn5ccnc5C)cc4-c4cn(C)nc4C(F)(F)F)C3=O)c2c1	SNU478	cell growth		120 h		EC50	0.0271 µM
COc1ccc2[nH]c([S+]([O-])Cc3ncc(C)c(OC)c3C)nc2n1 (centres unmarked)	human iPSC-derived cardiomyocytes	MyBP-C/MYH ratio, plate-normalised SD score		concentration not given, primary screen	direction not given	activity score	-5.4
CCn1cc(-c2cc(Cn3ccnc3)cc3c2CCN([C@H](c2cc(OC)ccn2)C2CC2)C3=O)c(C(F)(F)F)n1	NCI-H446	cell growth, inhibitor		120 h		EC50	> 30 µM
[Cl-].[Cl-].[Pt+2].[Ru+2].c1ccc(-c2nc3cc4ccccc4cc3nc2-c2ccccn2)nc1.c1cnc2c(c1)ccc1cccnc12.c1cnc2c(c1)ccc1cccnc12	pcDNA supercoiled plasmid	agarose gel electrophoresis		20 µM, photoinduced cleavage, with: 0.1 µM pcDNA		supercoiled DNA	87.4%
OC(CCN1CCCCC1)(c1ccccc1)C1CC2C=CC1C2 (centres unmarked)		resting-state EEG	healthy elderly humans	oral, 2 mg, eyes open, LS mean	baseline: baseline	EEG power, Beta, change in Fz/Cz	-5.3%
CC(C)C(=O)OC[C@@]1(F)O[C@@H](n2cnc(-c3cnc(N)[nH]c3=O)c2)[C@H](OC(=O)C(C)C)[C@@H]1OC(=O)C(C)C	Dengue virus	viral replication	Huh-7, DENV-4	48 h		EC50	> 100 µM
[Cl-].[Cl-].[Pt+2].[Ru+2].c1ccc(-c2nccnc2-c2ccccn2)nc1.c1cnc2c(c1)ccc1cccnc12.c1cnc2c(c1)ccc1cccnc12	pcDNA supercoiled plasmid	agarose gel electrophoresis		50 µM, photoinduced cleavage, with: 0.1 µM pcDNA		nicked circular DNA	20.6%

Some of these lines once more:
Compound	target or system	test	test system	conditions	how to read	measurement	result
CC(Nc1nc(N2CCCC2)nc2ccccc12)c1ccccc1 (centres unmarked)	importin beta-1	SREBP1 nuclear import, high content imaging	HeLa Kyoto	0.16 µM, 3 h, with: glucose and MG132		cells with nuclear SREBP1	85.7% and 88.3% and 91.6% and 81.3%
Nc1ncncc1-c1cn([C@@H]2O[C@](F)(CO)[C@@H](O)[C@H]2O)cn1	Dengue virus	viral replication	Huh-7, DENV-2	48 h		EC50	> 100 µM
CC(C)C(=O)OC[C@@]1(F)O[C@@H](n2cnc(-c3cnc(N)[nH]c3=O)c2)[C@H](OC(=O)C(C)C)[C@@H]1OC(=O)C(C)C	Dengue virus	viral replication	Huh-7, DENV-4	48 h		EC50	> 100 µM
Cn1cc(-c2ccc(-c3cncc(Cl)c3N3CCC4(CCNC4=O)CC3)cc2)cn1	COLO 205	microarray, measured: OPTN		concentration not given, 2 h, gene set Optineurin	baseline: untreated cells	fold change in expression	4.15
CCS(=O)(=O)c1nc(C2CC2)cc(C(F)(F)F)n1	importin beta-1	SREBP1 nuclear import, high content imaging	HeLa Kyoto	0.16 µM, 3 h, with: glucose and MG132		cells with nuclear SREBP1	84.8% and 83.5% and 88.9% and 90.2%
